Assay results from different studies.
Compare with care: the assays were run in different laboratories. ± marks the error that the study gave.
Organism: Klebsiella pneumoniae

| SMILES | test | system | conditions | MIC |
| --- | --- | --- | --- | --- |
| CC[C@H](C)[C@H](NC(=O)[C@H](Cc1ccccc1)NC(=O)[C@H](CC(=O)O)NC(=O)[C@H](CCCCN)NC(=O)[C@H](C)NC(=O)[C@H](CCCCN)NC(=O)[C@H](CC(N)=O)NC(=O)[C@H](CC(C)C)NC(=O)[C@H](Cc1c[nH]c2ccccc12)NC(=O)[C@H](CCC(=O)O)NC(=O)[C@H](CCCCN)NC(=O)[C@@H](NC(=O)CNC(=O)[C@H](C)N)[C@@H](C)O)C(=O)N[C@@H](CCCCN)C(=O)N[C@@H](CCC(=O)O)C(=O)N[C@@H](CCCCN)C(=O)NCC(=O)N[C@@H](CC(C)C)C(=O)NCC(=O)N[C@@H](CCSC)C(=O)N[C@@H](CC(C)C)C(=O)N[C@@H](CO)C(=O)N[C@@H](C)C(=O)N[C@@H](C)C(=O)N[C@@H](C)C(=O)N[C@@H](CC(N)=O)C(=O)N[C@@H](C)C(=O)N[C@@H](C)C(=O)N[C@@H](CC(C)C)C(=O)N[C@@H](CC(N)=O)C(=O)O | broth microdilution | ATCC 13883 | 20 h, 37 °C | > 40 µM |
| CC[C@H](C)[C@H](NC(=O)[C@H](CCCNC(=N)N)NC(=O)[C@@H](N)CCCNC(=N)N)C(=O)N[C@@H](CCCNC(=N)N)C(=O)N1CCC[C@H]1C(=O)N[C@@H](CCCNC(=N)N)C(=O)N1CCC[C@H]1C(=O)N1CCC[C@H]1C(=O)N[C@@H](CCCNC(=N)N)C(=O)N[C@@H](CC(C)C)C(=O)N1CCC[C@H]1C(=O)N[C@@H](CCCNC(=N)N)C(=O)N1CCC[C@H]1C(=O)N[C@@H](CCCNC(=N)N)C(=O)N1CCC[C@H]1C(=O)N[C@@H](CCCNC(=N)N)C(=O)N1CCC[C@H]1C(=O)N[C@@H](CC(C)C)C(=O)N1CCC[C@H]1C(=O)N[C@@H](Cc1ccccc1)C(=O)N1CCC[C@H]1C(=O)N[C@@H](CCCNC(=N)N)C(=O)N1CCC[C@H]1C(=O)NCC(=O)O | broth microdilution | NTUH K2044, Mueller Hinton broth | 24 h, 37 °C | 0.7 µM |
| CC[C@H](C)[C@H](NC(=O)[C@H](CC(C)C)NC(=O)CNC(=O)[C@@H]1CCCN1C(=O)[C@H](CC(C)C)NC(=O)[C@H](C)NC(=O)[C@H](CCCCN)NC(=O)CNC(=O)[C@H](CC(C)C)NC(=O)[C@H](CCSC)NC(=O)[C@H](CCCCN)NC(=O)[C@H](C)NC(=O)[C@H](C)NC(=O)[C@H](C)NC(=O)CNC(=O)[C@H](Cc1c[nH]c2ccccc12)NC(=O)[C@@H](N)Cc1ccccc1)C(=O)N[C@@H](CO)C(=O)N[C@@H](CCSC)C(=O)N[C@@H](Cc1ccccc1)C(=O)N[C@@H](CCC(N)=O)C(=O)N[C@@H](CCCCN)C(=O)N[C@@H](CC(N)=O)C(=O)O | broth microdilution | ATCC 13883 | 20 h, 37 °C | > 40 µM |
| CC[C@H](C)[C@H](NC(=O)[C@H](CC(=O)O)NC(=O)[C@H](Cc1ccccc1)NC(=O)[C@H](CC(C)C)NC(=O)CN)C(=O)N[C@H](C(=O)N[C@@H](CCCCN)C(=O)N[C@@H](CCCCN)C(=O)N[C@H](C(=O)N[C@H](C(=O)N[C@@H](CCCCN)C(=O)N[C@@H](CC(C)C)C(=O)N[C@@H](CC(C)C)C(=O)N[C@@H](CCCCN)C(N)=O)C(C)C)C(C)C)C(C)C | – | ATCC 700603, CAMHB | 18 h, 37 °C | > 20 µM |
| CC[C@H](C)[C@H](NC(=O)[C@H](CCCNC(=N)N)NC(=O)[C@@H](N)CCCNC(=N)N)C(=O)N[C@@H](CCCNC(=N)N)C(=O)N1CCC[C@H]1C(=O)N[C@@H](CCCNC(=N)N)C(=O)N1CCC[C@H]1C(=O)N1CCC[C@H]1C(=O)N[C@@H](CCCNC(=N)N)C(=O)N[C@@H](CC(C)C)C(=O)N1CCC[C@H]1C(=O)N[C@@H](CCCNC(=N)N)C(=O)N1CCC[C@H]1C(=O)N[C@@H](CCCNC(=N)N)C(=O)N1CCC[C@H]1C(=O)O | broth microdilution | NTUH K2044, Mueller Hinton broth | 24 h, 37 °C | 2 µM |
| CC(C)C[C@H](NC(=O)[C@H](CC(C)C)NC(=O)[C@H](CCCCN)NC(=O)[C@H](CC(C)C)NC(=O)[C@H](CC(C)C)NC(=O)[C@H](CCCCN)NC(=O)[C@H](CCCCN)NC(=O)[C@H](CC(C)C)NC(=O)[C@H](CC(C)C)NC(=O)[C@H](CCCCN)NC(=O)[C@H](CC(C)C)NC(=O)[C@H](CC(C)C)NC(=O)[C@@H](N)CCCCN)C(=O)N[C@@H](CCCCN)C(N)=O | – | ATCC 700603, CAMHB | 18 h, 37 °C | > 19 µM |
| CCCCCCCCCCCCCCCC(=O)Oc1ccc(/C=C/C(=O)CC(=O)/C=C/c2ccc(OC(=O)CCCCCCCCCCCCCCC)c(OC)c2)cc1OC | microbial growth, broth dilution | – | 24 h | 0.591 µM |
| CC(C)C[C@H](NC(=O)CN)C(=O)N[C@@H](Cc1ccccc1)C(=O)N[C@@H](CCCCN)C(=O)N[C@@H](CC(C)C)C(=O)N[C@@H](CC(C)C)C(=O)N[C@@H](CCCCN)C(=O)N[C@@H](CCCCN)C(=O)N[C@@H](CC(C)C)C(=O)N[C@@H](CC(C)C)C(=O)N[C@@H](CCCCN)C(=O)N[C@@H](CC(C)C)C(=O)N[C@@H](CC(C)C)C(=O)N[C@@H](CCCCN)C(N)=O | – | ATCC 700603, CAMHB | 18 h, 37 °C | > 20 µM |
| CC[C@H](C)[C@H](NC(=O)[C@H](CO)NC(=O)[C@@H](NC(=O)[C@H](C)NC(=O)[C@H](CCC(N)=O)NC(=O)CNC(=O)[C@@H](NC(=O)[C@@H](NC(=O)CNC(=O)[C@@H](NC(=O)[C@H](C)NC(=O)[C@@H]1CCCN1C(=O)CNC(=O)[C@H](C)NC(=O)[C@H](CCCCN)NC(=O)[C@@H](NC(=O)[C@@H](NC(=O)CNC(=O)[C@H](CC(=O)O)NC(=O)[C@H](CCCNC(=N)N)NC(=O)[C@@H](NC(=O)[C@H](CCCCN)NC(=O)[C@H](CCCNC(=N)N)NC(=O)CNC(=O)[C@@H](NC(=O)[C@H](CCCCN)NC(=O)[C@H](CCC(=O)O)NC(=O)[C@@H](NC(=O)[C@H](CCCCN)NC(=O)[C@H](CCCCN)NC(=O)[C@H](CC(C)C)NC(=O)[C@H](Cc1ccccc1)NC(=O)[C@H](CCCCN)NC(=O)[C@H](Cc1c[nH]c2ccccc12)NC(=O)[C@@H](N)CCCNC(=N)N)[C@@H](C)CC)C(C)C)C(C)C)C(C)C)[C@@H](C)CC)C(C)C)C(C)C)C(C)C)[C@@H](C)O)C(=O)N[C@@H](Cc1ccc(O)cc1)C(=O)N[C@@H](CCCCN)C(N)=O | broth microdilution | ATCC 700603 | 20 h, 37 °C | 4.3 ± 1.4 µg/mL |

For quick reference, copied from above:
| SMILES | test | system | conditions | MIC |
| --- | --- | --- | --- | --- |
| CC[C@H](C)[C@H](NC(=O)[C@H](CCCNC(=N)N)NC(=O)[C@@H](N)CCCNC(=N)N)C(=O)N[C@@H](CCCNC(=N)N)C(=O)N1CCC[C@H]1C(=O)N[C@@H](CCCNC(=N)N)C(=O)N1CCC[C@H]1C(=O)N1CCC[C@H]1C(=O)N[C@@H](CCCNC(=N)N)C(=O)N[C@@H](CC(C)C)C(=O)N1CCC[C@H]1C(=O)N[C@@H](CCCNC(=N)N)C(=O)N1CCC[C@H]1C(=O)N[C@@H](CCCNC(=N)N)C(=O)N1CCC[C@H]1C(=O)N[C@@H](CCCNC(=N)N)C(=O)N1CCC[C@H]1C(=O)N[C@@H](CC(C)C)C(=O)N1CCC[C@H]1C(=O)N[C@@H](Cc1ccccc1)C(=O)N1CCC[C@H]1C(=O)N[C@@H](CCCNC(=N)N)C(=O)N1CCC[C@H]1C(=O)NCC(=O)O | broth microdilution | NTUH K2044, Mueller Hinton broth | 24 h, 37 °C | 0.7 µM |
